Experimental data collected from several papers.
“And” joins repeats or separate records; there may be more than shown. ± marks the error that the study gave. Converted amounts (≈) assume the structure as drawn.

Under “nervous system adverse events”, `CO[C@H]1/C=C/O[C@@]2(C)Oc3c(C)c(O)c4c(O)c(c(/C=N/N5CCN(C)CC5)c(O)c4c3C2=O)NC(=O)/C(C)=C\C=C\[C@H](C)[C@H](O)[C@@H](C)[C@@H](O)[C@@H](C)[C@H](OC(C)=O)[C@@H]1C` is recorded as 33.3% (healthy humans; oral, dose not given).
`CCCn1cc(C)c2c(=O)[nH]c(-c3cc(S(=O)(=O)N4CCN(CC)CC4)ccc3OCC)nc21`: “blood fibrinogen decreased” 11.1% (human; concentration not given, treatment-emergent adverse event).
`CNCc1ccc(-c2[nH]c3cc(F)cc4c3c2CCNC4=O)cc1` gave a diarrhoea incidence of 100% (human patients; oral, 840 mg twice daily, all grades).
For `CC[C@H](C)C(=O)O[C@H]1C[C@@H](C)C=C2C=C[C@H](C)[C@H](CC[C@@H]3C[C@@H](O)CC(=O)O3)[C@H]21`, the remaining compound was 59.6% (dog, Beagle, both sexes, whole blood; 5 µM, 120 min).
With `O=C1C[C@@H](c2ccc(O)cc2)Oc2cc(O)cc(O)c21` the hemolysis was 1.67% (red blood cells; 20 ppm, 1 h).
`CCN1/C(=C/C(C)=O)Sc2ccc(F)cc21` has a heart rate of 96 ± 13 beats/min (cynomolgus monkey; oral, 30 mg/kg, 24 h post-dose).
With `COc1nnc2ccc(N3CCC(c4ccc(OCCN5CCN(C)C(=O)[C@H]5C)cc4)CC3)nn12` the terminal half-life was 2.28 h (patients, plasma; oral, 20 mg twice daily, single dose, monotherapy).
`Cc1ccc(C)c(OCCCC(C)(C)C(=O)O)c1` — result for “geometric mean ratio”: 0.67 (refers to: Cmax; human subjects, plasma; oral, dose not given, with: lopinavir-ritonavir; baseline: with over without lopinavir-ritonavir).
`[18F]c1ccc(-c2ccc3c(c2)[nH]c2ccncc23)cn1` has an SUV of 0.67 ± 0.187 (microPET/CT imaging; B6SJL mouse, normal, heart; intravenous, 15 min).
For `C[C@@H]1CCO[C@H]2Cn3cc(C(=O)NCc4ccc(F)cc4F)c(=O)c(O)c3C(=O)N12`, the plasma concentration was 428 ng/mL (population PK, post-hoc; children, 14 to <20 kg, plasma; oral, 15 mg dispersible tablet, 24 h, steady state, geometric mean).
`C=CCN1CC(=O)N2[C@@H](Cc3ccc(O)cc3F)C(=O)N(Cc3cccc(N4CC(N5CCN(CC)CC5)C4)n3)C[C@@H]2N1C(=O)NCc1ccccc1` has a treatment-related diarrhoea of 0% (advanced solid tumour patients; oral, 80 mg twice daily, any grade, dose-escalation).
For `N#Cc1ccc2c(c1)[C@H]1CCCN(C(=O)c3ccc4[nH]cnc4c3)[C@H]1C2`, the DHEA-S level was 10 µmol/L (human, male; 240 mg, day 15).
`CCc1cc(C(=O)NC)c2nccc(N3CCc4c(cc(Cn5ccnc5)cc4-c4cn(C)nc4C(F)(F)F)C3=O)c2c1`: “serum ALT change” 0.8% (Sprague Dawley rats; oral, 50 mg/kg once daily, 7 days; baseline: vehicle).
`Cc1cc(Nc2ccc(S(F)(F)(F)(F)F)cc2)n2nc(C(C)(F)F)nc2n1`: “adverse event Stomatitis” 0% (Plasmodium falciparum malaria patients; oral, 400 mg).
For `O=C(Nc1cnccc1Cl)N1CCN(Cc2ccc3c(c2)OC(F)(F)O3)CC1`, the dose-normalized AUC(0-tau) was 1510 ng·h/mL (young men, plasma; oral, 75 mg once daily, day 10, normalized to 10 mg).
For `Cc1cccc(CNC(=O)c2cn(CCNC(=O)c3ccccc3Sc3c([N+](=O)[O-])ncn3C)c3cc4c(cc3c2=O)OC(F)(F)O4)n1`, the half-life was 2.31 h (Sprague-Dawley rat, male, whole blood; intramuscular, 3 mg/kg of parent drug).
For `O=C(O)CCCOc1ccc([18F])cc1-c1cc(-c2ccccc2C(F)(F)F)n(-c2ccccc2)n1`, the radioactivity uptake was 0.47 ± 0.07 SUV (gamma counting; male ddY mice, lung; intravenous, 2.1 MBq, 15 min).
For `C[C@H](CCC(=O)NCC(=O)O)[C@H]1CC[C@H]2[C@@H]3CC[C@@H]4C[C@H](OS(=O)(=O)O)CC[C@]4(C)[C@H]3CC[C@]12C`, “relative peak deviation” read 89.5 ± 14.5% (human, plasma; endogenous control diurnal; baseline: daily mean concentration).
`Cc1cc(-c2nnc(N)nc2-c2ccc(F)cc2)cc(Cl)n1` — result for “patients with treatment-related AE”: 71.4% (human, post-IO other solid tumours; oral, 100 mg once daily, phase Ia/Ib, any grade).
For `CC(C)(C(=O)N1CCOc2c(C#N)cncc2C1)C(F)F`, “subjects with adverse event” read 16.7% (refers to: renal and urinary disorders; human; oral, 40 mg, CSF pharmacokinetic cohort).
For `C[C@@H](NC(=O)N1C(=O)[C@H](Cc2ccnc(N)c2)[C@H]1C(=O)O)C1CCCCC1`, “elimination rate constant” read 0.000173 s⁻¹ (UPLC-MS/MS; healthy adult Chinese volunteers, plasma; continuous intravenous infusion, 0.6 mg/kg/h, day 6 of 5-day infusion, mean).
`COc1ncc(-c2nc3c(n2C(C)C)[C@H](c2ccc(Cl)cc2)N(c2cc(Cl)cn(C)c2=O)C3=O)c(OC)n1` has a median Tmax of 2 h (human patients, plasma; oral, 25 mg, cycle 1 day 1, low-dose).
For `C[C@H]1CN(C(=O)CC#N)[C@]12CCN(c1ncnc3[nH]ccc13)C2`, the Cmax was 956 ng/mL (healthy Japanese males; oral, 100 mg single dose, mean).
For `CNC(=O)c1ccc(-c2cnc3ncc(Cc4ccc5ncccc5c4)n3n2)cc1F`, the ILD patients was 1% (Japanese patients; oral, 400 mg twice daily, any grade).
`C=CC(=O)NC1CCN(c2ncc3ncnc(Nc4ccc(Oc5ccc6c(c5)ncn6C)c(C)c4)c3n2)CC1` gave a terminal half-life of 260 h (refers to: total radioactivity; healthy male volunteers, plasma; oral solution, 60 mg, with: [14C]-labelled compound).
The concentration of `CN(C(=O)n1cnc(-c2ccc[n+]([O-])c2)c1)[C@H]1CC[C@H](O)CC1` is reported as 10.3 ± 0.6 ng/g (Wistar rat, pons; oral, 10 mg/kg/day of BIA 10-2474, 4 h, repeated 5 days).
For `NS(=O)(=O)c1cc(C(=O)O)c(NCc2ccco2)cc1Cl`, “subjects with adverse event” read 0% (refers to: vessel puncture site pain; healthy men; oral, 8 days, treatment-emergent, crossover trial).
`COc1ccc(CNc2nc(-c3ccc(C(=O)O)cc3)nc3c2c2ccccc2n3C)cc1Cl` gave a body weight of 21.8 g and 22.5 g and 21.1 g and 24 g (NSG mice; dose not given, day 5 of treatment).
`N#Cc1ccc(C(c2ccc(C#N)cc2)n2cncn2)cc1`: “unbound Cmax at steady state” 4040 ± 185 nM (human patients, plasma; oral, 15 mg daily).
For `O=C(O)CSc1nnc(Br)n1-c1ccc(C2CC2)c2ccccc12`, the ALT was 66.6 U/L and 64 U/L and 97.4 U/L and 61.8 U/L and 60.8 U/L and 37.4 U/L (KM mouse, chronic hyperuricaemia model, serum; dose not given).
`CNCCOC12CC3(C)CC(C)(CC(Cn4ncc(-c5ccc(N6CCc7cccc(C(=O)Nc8nc9ccccc9s8)c7C6)nc5C(=O)O)c4C)(C3)C1)C2`: “heart rate change” 0% (beagle dog, male, anaesthetised; intravenous bolus, 0.03 mg/kg, 210 min; baseline: baseline).
For `CCOCc1nc(O)c(-c2nnc(Cc3ccc(Cl)cn3)o2)c(O)c1-c1c(OC)cccc1OC`, the plasma concentration was 982 ± 41 nM (anaesthetized rats, plasma; intravenous infusion, 10 µg/kg/min for 15 min, 20 min washout).
`O=C(c1cccnc1-c1ccncc1)N1CCC(O)(Cc2ccccc2)CC1` has a terminal half-life of 5.99 h (healthy Japanese adults, plasma; oral, 100 mg twice daily, day 1).
For `Cc1ccc(C)c(OCCCC(C)(C)C(=O)O)c1`, “trough plasma concentration” read 1780 ng/mL (human, plasma; oral, dose not given, day 12 predose, geometric mean).
With `COc1ccc2c(c1)CN(C(=O)CCN1CCC(Cc3ccccc3)CC1)CC[S@@+]2[O-]` the PQ interval was 85 ± 8 ms (telemetry; conscious male beagle dogs; intravenous, 8 mg/kg, 1 h).
The Cmax of `O=C(O)CCC(=O)O.[2H]C([2H])([2H])Oc1cc(C)c2[nH]ccc2c1CN1CC[C@@H](C2CC2)C[C@H]1c1ccc(C(=O)O)cc1` is reported as 7290 ng/mL (human, plasma; 300 mg once daily, day 10, multiple ascending dose, geometric mean).
`CCn1ncc2c1-c1cnc(N)c(c1)O[C@H](C)c1cc(F)ccc1-c1nn(C)nc1C2` — result for “unbound plasma concentration”: 510 ± 54 nM (female BALB/c nude mice, PDX; oral, 5 mg/kg once daily for 1 days, 1 h).
`O=C1CSCCN1c1ccc(CO[C@@H]2COc3nc([N+](=O)[O-])cn3C2)cc1` has an aqueous solubility of 29 µg/mL (≈ 74.3 µM) (aqueous buffer; pH 7.4).
`Cc1ccc([C@@H]2O[C@H](CO)[C@@H](O)[C@H](O)[C@H]2O)cc1Cc1ccc(-c2ccc(F)cc2)s1`: “urinary calcium excretion change” -12.7 mg (Japanese type 2 diabetes patients; 100 mg, day 17, 24 h urine collection; baseline: baseline).

For quick reference, copied from above:
The Cmax of `O=C(O)CCC(=O)O.[2H]C([2H])([2H])Oc1cc(C)c2[nH]ccc2c1CN1CC[C@@H](C2CC2)C[C@H]1c1ccc(C(=O)O)cc1` is reported as 7290 ng/mL (human, plasma; 300 mg once daily, day 10, multiple ascending dose, geometric mean).
`CCn1ncc2c1-c1cnc(N)c(c1)O[C@H](C)c1cc(F)ccc1-c1nn(C)nc1C2` — result for “unbound plasma concentration”: 510 ± 54 nM (female BALB/c nude mice, PDX; oral, 5 mg/kg once daily for 1 days, 1 h).
`O=C1CSCCN1c1ccc(CO[C@@H]2COc3nc([N+](=O)[O-])cn3C2)cc1` has an aqueous solubility of 29 µg/mL (≈ 74.3 µM) (aqueous buffer; pH 7.4).
`Cc1ccc([C@@H]2O[C@H](CO)[C@@H](O)[C@H](O)[C@H]2O)cc1Cc1ccc(-c2ccc(F)cc2)s1`: “urinary calcium excretion change” -12.7 mg (Japanese type 2 diabetes patients; 100 mg, day 17, 24 h urine collection; baseline: baseline).
